Measurements pooled from the literature.
Protocols differ between the studies behind these lines. Several values in a cell are separate wells, animals, samples, runs or records. Numbers after ± are the reported error.
MT-CYB/UQCRFS1: MT-CYB/UQCRFS1 (Homo sapiens, UniProt P00156+P47985)
Sequence of UniProt P00156 (whole entry, looked up): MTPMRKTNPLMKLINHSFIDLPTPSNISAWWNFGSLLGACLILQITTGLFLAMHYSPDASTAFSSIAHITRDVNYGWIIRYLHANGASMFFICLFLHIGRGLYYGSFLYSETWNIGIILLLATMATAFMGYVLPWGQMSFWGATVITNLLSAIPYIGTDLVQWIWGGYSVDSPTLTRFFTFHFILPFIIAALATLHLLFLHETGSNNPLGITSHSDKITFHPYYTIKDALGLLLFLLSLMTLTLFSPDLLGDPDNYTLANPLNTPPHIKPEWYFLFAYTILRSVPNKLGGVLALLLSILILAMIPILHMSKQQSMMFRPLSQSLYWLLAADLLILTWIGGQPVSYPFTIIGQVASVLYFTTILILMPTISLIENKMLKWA
Sequence of UniProt P47985 (whole entry, looked up): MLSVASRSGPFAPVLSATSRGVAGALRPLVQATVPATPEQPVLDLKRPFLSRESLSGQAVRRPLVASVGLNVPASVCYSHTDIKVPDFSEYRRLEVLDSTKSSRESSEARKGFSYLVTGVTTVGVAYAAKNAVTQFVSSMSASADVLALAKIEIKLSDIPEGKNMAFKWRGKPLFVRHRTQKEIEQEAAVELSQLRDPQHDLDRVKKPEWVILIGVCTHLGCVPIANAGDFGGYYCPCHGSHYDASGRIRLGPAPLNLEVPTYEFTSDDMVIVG
CLK2: Dual specificity protein kinase CLK2 (CLK2, Homo sapiens, UniProt P49760)
Sequence of UniProt P49760 (whole entry, looked up): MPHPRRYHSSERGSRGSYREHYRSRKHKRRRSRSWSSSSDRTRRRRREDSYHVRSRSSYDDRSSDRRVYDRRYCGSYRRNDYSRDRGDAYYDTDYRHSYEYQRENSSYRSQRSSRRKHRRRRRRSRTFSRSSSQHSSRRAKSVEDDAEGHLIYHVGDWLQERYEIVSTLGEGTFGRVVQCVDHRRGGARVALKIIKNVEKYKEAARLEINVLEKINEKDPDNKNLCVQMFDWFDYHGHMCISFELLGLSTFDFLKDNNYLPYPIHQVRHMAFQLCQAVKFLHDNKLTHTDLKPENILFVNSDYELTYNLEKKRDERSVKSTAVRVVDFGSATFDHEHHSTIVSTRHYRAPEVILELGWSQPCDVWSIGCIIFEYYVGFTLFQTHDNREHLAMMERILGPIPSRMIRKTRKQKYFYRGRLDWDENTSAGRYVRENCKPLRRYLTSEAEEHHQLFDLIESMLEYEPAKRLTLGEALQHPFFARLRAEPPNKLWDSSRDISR
PTGDR: Prostaglandin D2 receptor (PTGDR, Homo sapiens, UniProt Q13258)
Sequence of UniProt Q16774 (whole entry, looked up): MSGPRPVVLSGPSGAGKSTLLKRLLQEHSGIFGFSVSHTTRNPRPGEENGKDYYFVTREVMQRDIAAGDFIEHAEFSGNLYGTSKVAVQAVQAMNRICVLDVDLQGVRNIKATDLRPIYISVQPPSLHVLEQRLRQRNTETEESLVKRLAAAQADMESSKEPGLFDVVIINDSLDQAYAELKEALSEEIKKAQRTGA
Sequence of UniProt O95747 (whole entry, looked up): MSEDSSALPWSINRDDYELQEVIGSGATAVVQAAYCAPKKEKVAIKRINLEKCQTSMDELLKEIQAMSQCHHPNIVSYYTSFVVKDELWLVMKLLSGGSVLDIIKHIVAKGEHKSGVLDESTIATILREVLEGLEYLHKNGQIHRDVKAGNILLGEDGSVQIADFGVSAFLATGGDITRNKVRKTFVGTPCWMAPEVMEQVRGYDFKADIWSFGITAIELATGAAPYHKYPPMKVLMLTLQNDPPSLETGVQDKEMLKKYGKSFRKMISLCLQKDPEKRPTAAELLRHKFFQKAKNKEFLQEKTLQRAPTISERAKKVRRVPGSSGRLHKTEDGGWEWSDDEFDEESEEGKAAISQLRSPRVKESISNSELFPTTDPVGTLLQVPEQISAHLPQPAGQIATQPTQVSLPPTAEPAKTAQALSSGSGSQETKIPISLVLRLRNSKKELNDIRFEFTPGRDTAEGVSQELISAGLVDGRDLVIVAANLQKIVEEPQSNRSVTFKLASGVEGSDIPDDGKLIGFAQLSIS
Sequence of UniProt P51575 (whole entry, unmodified, looked up): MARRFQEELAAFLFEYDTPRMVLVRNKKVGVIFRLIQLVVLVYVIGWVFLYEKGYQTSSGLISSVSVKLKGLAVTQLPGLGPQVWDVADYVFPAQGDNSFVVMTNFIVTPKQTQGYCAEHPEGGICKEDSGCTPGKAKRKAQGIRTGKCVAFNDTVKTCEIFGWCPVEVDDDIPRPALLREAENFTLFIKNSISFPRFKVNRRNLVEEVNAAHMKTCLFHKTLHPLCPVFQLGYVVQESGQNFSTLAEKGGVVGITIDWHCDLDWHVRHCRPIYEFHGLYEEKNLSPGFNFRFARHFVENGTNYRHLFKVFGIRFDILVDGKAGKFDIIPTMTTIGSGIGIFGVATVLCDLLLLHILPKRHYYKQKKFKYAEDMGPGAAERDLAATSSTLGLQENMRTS
Sequence of UniProt P63092 (whole entry, looked up): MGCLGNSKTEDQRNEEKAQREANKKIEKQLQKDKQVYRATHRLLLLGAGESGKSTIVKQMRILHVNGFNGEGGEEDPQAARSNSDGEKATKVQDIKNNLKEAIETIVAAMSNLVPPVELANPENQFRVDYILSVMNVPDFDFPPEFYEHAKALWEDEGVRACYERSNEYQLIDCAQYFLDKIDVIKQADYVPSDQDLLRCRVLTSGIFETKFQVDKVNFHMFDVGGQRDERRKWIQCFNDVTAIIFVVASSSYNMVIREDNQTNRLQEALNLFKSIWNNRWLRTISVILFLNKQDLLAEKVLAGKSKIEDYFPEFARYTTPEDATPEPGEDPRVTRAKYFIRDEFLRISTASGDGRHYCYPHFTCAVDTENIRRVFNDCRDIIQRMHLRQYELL
Sequence of UniProt Q13258 (whole entry, looked up): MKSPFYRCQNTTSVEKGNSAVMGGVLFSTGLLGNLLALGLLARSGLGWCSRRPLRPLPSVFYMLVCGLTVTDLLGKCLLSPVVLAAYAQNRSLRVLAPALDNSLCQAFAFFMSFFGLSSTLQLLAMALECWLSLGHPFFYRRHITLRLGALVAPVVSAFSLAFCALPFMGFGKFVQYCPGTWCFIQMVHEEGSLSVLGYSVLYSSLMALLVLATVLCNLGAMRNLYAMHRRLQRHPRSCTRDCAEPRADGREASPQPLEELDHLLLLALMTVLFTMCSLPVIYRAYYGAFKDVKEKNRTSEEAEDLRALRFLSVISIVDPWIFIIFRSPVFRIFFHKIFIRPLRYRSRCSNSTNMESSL
Sequence of UniProt O15146 (whole entry, looked up): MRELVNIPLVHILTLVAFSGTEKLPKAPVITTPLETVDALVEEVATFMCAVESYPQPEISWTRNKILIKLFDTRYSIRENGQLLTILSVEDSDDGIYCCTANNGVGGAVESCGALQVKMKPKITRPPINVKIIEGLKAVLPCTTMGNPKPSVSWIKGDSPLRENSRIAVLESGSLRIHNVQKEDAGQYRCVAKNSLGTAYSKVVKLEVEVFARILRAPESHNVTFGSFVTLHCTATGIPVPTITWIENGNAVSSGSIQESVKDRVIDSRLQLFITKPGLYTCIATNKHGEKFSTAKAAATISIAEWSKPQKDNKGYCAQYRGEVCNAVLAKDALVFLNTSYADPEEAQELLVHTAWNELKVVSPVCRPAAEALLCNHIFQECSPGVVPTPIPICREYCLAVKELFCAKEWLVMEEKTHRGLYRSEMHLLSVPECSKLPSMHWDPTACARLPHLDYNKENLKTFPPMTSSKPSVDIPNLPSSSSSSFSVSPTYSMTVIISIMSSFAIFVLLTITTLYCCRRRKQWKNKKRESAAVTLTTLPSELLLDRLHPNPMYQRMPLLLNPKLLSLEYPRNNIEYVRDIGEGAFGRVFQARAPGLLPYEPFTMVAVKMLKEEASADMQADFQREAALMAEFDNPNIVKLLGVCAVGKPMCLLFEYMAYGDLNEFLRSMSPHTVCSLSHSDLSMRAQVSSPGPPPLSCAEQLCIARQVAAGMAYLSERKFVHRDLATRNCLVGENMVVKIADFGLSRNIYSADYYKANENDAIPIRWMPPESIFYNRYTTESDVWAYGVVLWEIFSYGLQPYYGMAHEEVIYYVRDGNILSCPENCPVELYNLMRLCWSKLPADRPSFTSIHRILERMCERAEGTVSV
Sequence of UniProt Q8K3Y3 (whole entry, looked up): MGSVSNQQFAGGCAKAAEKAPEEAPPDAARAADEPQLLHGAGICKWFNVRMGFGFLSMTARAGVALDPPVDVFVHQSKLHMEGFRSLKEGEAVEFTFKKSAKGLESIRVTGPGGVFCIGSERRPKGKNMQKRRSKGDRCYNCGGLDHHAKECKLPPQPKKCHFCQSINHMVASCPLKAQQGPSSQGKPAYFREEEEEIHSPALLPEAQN
Sequence of UniProt P36021 (whole entry, looked up): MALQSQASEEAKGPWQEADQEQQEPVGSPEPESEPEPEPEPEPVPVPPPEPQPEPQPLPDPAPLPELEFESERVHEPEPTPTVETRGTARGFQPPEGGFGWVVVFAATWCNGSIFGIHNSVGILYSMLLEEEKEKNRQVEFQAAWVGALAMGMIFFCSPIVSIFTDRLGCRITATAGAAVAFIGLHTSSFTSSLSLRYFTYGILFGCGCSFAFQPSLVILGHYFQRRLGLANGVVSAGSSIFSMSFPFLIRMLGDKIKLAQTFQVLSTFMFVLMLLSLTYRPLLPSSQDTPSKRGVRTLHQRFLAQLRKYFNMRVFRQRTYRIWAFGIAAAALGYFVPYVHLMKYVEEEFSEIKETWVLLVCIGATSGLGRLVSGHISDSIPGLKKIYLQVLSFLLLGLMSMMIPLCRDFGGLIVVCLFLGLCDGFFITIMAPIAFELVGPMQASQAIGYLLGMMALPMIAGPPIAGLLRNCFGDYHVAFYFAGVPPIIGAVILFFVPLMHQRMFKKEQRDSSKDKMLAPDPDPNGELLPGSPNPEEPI

O=C(NO)c1ccc(CN2CCCCc3ccccc32)c(F)c1 — inhibition of radioligand binding (HTR1E (Homo sapiens, UniProt P28566); radioligand binding; 10 µM): 9.45%
Nc1ncnc2c1ncn2[C@@H]1O[C@H](COP(=O)(O)CP(=O)(O)OP(=O)(O)O)[C@@H](O)[C@H]1O — calcium influx (P2X purinoceptor 1 (P2RX1, Homo sapiens, UniProt P51575, D97A); calcium influx; 100 nM; relative to: ionomycin response): 31.9% and 38.5% and 24.8% and 24.3%
NC(=O)NOCCCCCCCCCCCC[P+](c1ccccc1)(c1ccccc1)c1ccccc1.O=C([O-])C(F)(F)F — oxygen consumption rate (MT-CYB/UQCRFS1; complex III-dependent respiration, Seahorse XF96; HCT-116; 2 µM, 24 h; relative to: control): 55.1 ± 14.8%
CC[C@@H]1[C@H](F)C(=O)N[C@@H]1COc1nccc2cc(C(N)=O)c(OC)cc12 — inhibition (CLK2; ATP-site probe binding, ActivX profiling; THP-1 cell lysate; 0.2 mM, Lys2 site): 38.8%
NC(=O)NOCCCCCCCCCC[P+](c1ccccc1)(c1ccccc1)c1ccccc1.O=C([O-])C(F)(F)F — oxygen consumption rate (MT-CYB/UQCRFS1; complex III-dependent respiration, Seahorse XF96; HCT-116; 40 µM, 24 h; relative to: control): 35 ± 9.26%
Cn1c(SCc2ccccc2Cl)nc(=O)c2c1NC(=O)CC2c1ccc2c(c1)OCCO2 (centres unmarked) — Hill slope (Protein lin-28 homolog A (Mus musculus, UniProt Q8K3Y3)): -1.7
NC(Cc1cc(I)c(Oc2cc(I)c(O)c(I)c2)c(I)c1)C(=O)O (centres unmarked) — uptake (SLC16A2 (Homo sapiens, UniProt P36021); transport, substrate; transfected COS-1 cells; relative to: empty vector cells): increased
CCCCC[C@H](O)/C=C/[C@H]1[C@H](O)CC(=O)[C@@H]1C/C=C\CCCC(=O)O — GTP hydrolysis (GNAS, with Gbeta and Ggamma (Homo sapiens, UniProt P63092); modulator; 100 µM, without A2AR; relative to: Gs alone): 76.8% and 91.8% and 94.7% and 89.6%
CCCN(O)N=Nc1ccc(S(=O)(=O)Nc2onc(C)c2C)cc1 — inhibition (α-glucosidase, rat intestine; enzyme activity; 20 µg/mL, with: 4-nitrophenyl α-D-glucopyranoside): 7.5 ± 0.04%
Nc1ncnc2c1ncn2[C@@H]1O[C@H](C[C@@H](N)CC[C@H](N)C(=O)O)[C@@H](O)[C@H]1O — binding stoichiometry (O-methyltransferase (Sorghum bicolor, UniProt A0A1B6PFV1); ITC; concentration not given, with: PTR+): 0.98 ± 0.012
Cc1cc(Nc2cc(N3CCN(C)CC3)nc(Sc3ccc(NC(=O)C4CC4)cc3)n2)[nH]n1 — remaining activity (CLK2; kinase activity, KinaseProfiler; 0.03 µM, species human; relative to: control): 108%
CC(=O)N[C@@H](C)C(=O)N[C@@H](CC(N)=O)C(=O)NCC(=O)N[C@@H](CC(N)=O)C(=O)N[C@@H](C)C(=O)N[C@@H](CCC(=O)O)C(=O)N[C@@H](CC(N)=O)C(=O)N[C@@H](CCC(=O)O)C(=O)N[C@@H](CCC(=O)O)C(=O)N[C@@H](CC(N)=O)C(=O)NCC(=O)N[C@@H](CCC(=O)O)C(=O)N[C@@H](CCC(N)=O)C(=O)N[C@@H](CCC(=O)O)C(=O)N[C@@H](C)C(=O)N[C@@H](CC(=O)O)C(=O)N[C@@H](CC(N)=O)C(=O)N[C@@H](CCC(=O)O)C(=O)N[C@H](C(=O)N[C@@H](CC(=O)O)C(N)=O)C(C)C — ΔG (Kelch-like ECH-associated protein 1, Kelch domain (KEAP1, Homo sapiens, UniProt Q14145); binding, ITC; pH 7, 298.15 K): -6.66 ± 0.07 kcal/mol
CCN1CCC[C@H]1CNC(=O)c1c(O)c(Cl)cc(Cl)c1OC — log2 fold change (Probable G-protein coupled receptor 156 (GPR156, Homo sapiens, UniProt Q8NFN8); β-arrestin recruitment, TANGO luminescence, refers to: GPR156; concentration not given; relative to: basal luminescence): -0.00471
CCCCOc1cc(C(=O)NCCN(CC)CC)c2ccccc2n1 — loss of binding free energy (PKD2L1 (Homo sapiens, UniProt Q9P0L9, F549I)): 5.3 kcal/mol
[Cl-].[K+] — reaction velocity (GUK1 (Homo sapiens, UniProt Q16774); enzyme activity, NADH-coupled; 3.75 mM): 0.046 µM/s and 0.0503 µM/s and 0.0584 µM/s
Cc1cccc(N(O)N=Nc2ccc(S(=O)(=O)Nc3nccs3)cc2)c1 — inhibition (α-glucosidase, rat intestine; enzyme activity; 180 µg/mL, with: 4-nitrophenyl α-D-glucopyranoside): 27.5 ± 0.097%
CCCCC[C@H](O)/C=C/[C@H]1C(=O)C[C@H](O)[C@@H]1C/C=C\CCCC(=O)O — activation (PTGDR; agonist; 0.1562 µM): 99.9%
C=CC(=O)N1CCN(c2nc(OC[C@@H]3CCCN3C)nc3c(F)c(-c4nc(N)cc(C)c4C(F)(F)F)c(Cl)cc23)[C@@H](C)C1 — dissociation rate constant koff (GTPase KRas, GDP-bound (KRAS, Homo sapiens, UniProt P01116, A146T); SPR): 0.117 ± 0.0019 s⁻¹
C=CC(=O)NCc1ccccc1CN(C(=O)Nc1cccc(C(F)(F)F)c1)C1CCN(C(C)CCC)CC1 (centres unmarked) — covalent adduct formation (DCN1-like protein 1 (Homo sapiens, UniProt Q96GG9); covalent binder, LC-TOF mass spectrometry; 60 µM, overnight, 4 °C, with: DCN1-like protein 1 30 µM): 10%
O=c1nc(SCc2cc(F)cc(C(F)(F)F)c2)nc(SCc2ccc3nc(OCCN4CCOCC4)ccc3c2)[nH]1 — linear DNA (TOP2A (Homo sapiens, UniProt P11388); DNA cleavage; 31.25 µM, replicate 2): 0%
C=CC(=O)N1CCC(COCC(=O)N2CCN(c3nc(-c4cnc(N)nc4C(F)F)nc(N4CCOC[C@@H]4C)n3)CC2)CC1 — remaining binding (MUSK (Homo sapiens, UniProt O15146); KINOMEscan; 1 µM): 100%
CCCCC[C@@H]1OC(=O)[C@@H](C)N(C)C(=O)[C@H](CCCCC)OC(=O)[C@@H](C)N(C)C(=O)[C@H](CC(=O)O)OC(=O)[C@@H](C)N(C)C(=O)[C@H](CCCCC)OC(=O)[C@@H](C)N(C)C1=O — open dwell time constant T2 (ryanodine receptor 2 (Sus scrofa, UniProt A0A5G2R1W3); single-channel gating, planar lipid bilayer; 50 µM, pCa 7, porcine): 15 ± 6.4 ms
NC(=O)NOCCCCCCCCCCCCCC[P+](c1ccccc1)(c1ccccc1)c1ccccc1.O=C([O-])C(F)(F)F — oxygen consumption rate (MT-CYB/UQCRFS1; complex III-dependent respiration, Seahorse XF96; HCT-116; 2 µM, 24 h; relative to: control): 35.1 ± 5.2%
Cc1cc(C(=O)Nc2ccc(Cl)cc2Cl)no1 — Km (esterase, rabbit liver; substrate, HPLC-UV; pH 7.25, 25 °C): 370 µM
[H]/N=C(/N)NCC(=O)O — normalised MST signal (SLC6A6 (Homo sapiens, UniProt P31641, L306A); binding, microscale thermophoresis; 125 µM, room temperature, with: 50 nM labelled protein; higher = more binding): -0.0331
COc1cc(O)c2c(c1)oc(=O)c1c3cc(O)c(O)cc3oc21 — ΔH (MAL12 (Saccharomyces cerevisiae S288c, UniProt P53341); fluorescence quenching; 307 K): -105 kJ/mol
O=C(COP(=O)(O)O)[C@@H](O)[C@H](O)[C@H](O)COP(=O)(O)O — thermal stability ratio (OXSR1 (Homo sapiens, UniProt O95747); thermal proteome profiling; HepG2 cell lysate; concentration not given, 57 over 37 °C; relative to: compound over control): 0.667 and 0.5 and 0.609
Cc1ccc(N(O)N=Nc2ccc(S(=O)(=O)Nc3cc(C)on3)cc2)cc1 — inhibition (α-glucosidase, rat intestine; enzyme activity; 20 µg/mL, with: 4-nitrophenyl α-D-glucopyranoside): 12.5 ± 0.59%
O=C1Nc2ccc(Br)cc2C1=O — share of total products (Dehaloperoxidase B, ferric (Amphitrite ornata, UniProt Q9NAV7); product, HPLC; with: 5-bromoindole 500 µM, H2O2 100 µM): 3.1%
C=C1CN(S(=O)(=O)c2ccc(C)cc2)CCCN(Cc2ccccc2)CCCN(S(=O)(=O)c2ccc(C)cc2)C1 — FLuc activity (HEK293 with CD4 signal peptide-FLuc; 20 µM, 4 h, no cycloheximide, unit not given; relative to: mock): 1.82
O=C(O[C@@H]1[C@@H](O)[C@H](Oc2cc(O)c3c(c2)O[C@H](c2ccccc2)CC3=O)O[C@@H]2COC(=O)c3cc(O)c(O)c(O)c3-c3c(cc(O)c(O)c3O)C(=O)O[C@@H]12)c1cc(O)c(O)c(O)c1 — MPB binding (P4HB (Homo sapiens, UniProt P07237); inhibitor, maleimide-PEG-biotin labelling; concentration not given, compound preincubation): no effect
CCCN(CCC)c1ccc(C(=O)NCCn2c(C)cc3ccccc32)cc1 — selectivity ratio (PTGDR; receptor antagonism; C6 glioma; relative to: EP2 over DP1): > 275 fold
